Experimental data collected from several papers.
Each line is one published result; not all experiments were run side by side.
Organism: Pseudomonas aeruginosa

Compound	assay	system	setting	scale	quantity	result
CCCC(=O)NCC(=O)N[C@@H](CC(C)C)C(=O)N[C@@H](CC(C)C)C(=O)N[C@@H](CCCCN)C(=O)N[C@@H](CCCNC(=N)N)C(=O)N[C@H](C(=O)N[C@@H](CCCCN)C(=O)N[C@H](C(=O)N[C@@H](CC(C)C)C(=O)N[C@@H](CC(C)C)C(=O)NCCCC[C@H](NC(=O)[C@H](CCCCNC(=O)[C@H](CC(C)C)NC(=O)[C@H](CC(C)C)NC(=O)[C@@H](NC(=O)[C@H](CCCCN)NC(=O)[C@@H](NC(=O)[C@H](CCCNC(=N)N)NC(=O)[C@H](CCCCN)NC(=O)[C@H](CC(C)C)NC(=O)[C@H](CC(C)C)NC(=O)CNC(=O)CCC)[C@@H](C)CC)[C@@H](C)O)NC(=O)[C@H](CC(C)C)NC(=O)[C@H](CC(C)C)NC(=O)[C@@H](NC(=O)[C@H](CCCCN)NC(=O)[C@@H](NC(=O)[C@H](CCCNC(=N)N)NC(=O)[C@H](CCCCN)NC(=O)[C@H](CC(C)C)NC(=O)[C@H](CC(C)C)NC(=O)CNC(=O)CCC)[C@@H](C)CC)[C@@H](C)O)C(N)=O)[C@@H](C)O)[C@@H](C)CC	checkerboard	ATCC 27853	added: rifampicin	–	FIC index	0.5
CC[C@H](C)[C@H](NC(=O)[C@H](Cc1c[nH]cn1)NC(=O)[C@H](CCCCNC(=O)[C@@H](NC(=O)[C@H](CCCCN)NC(=O)CSC[C@H](NC(=O)[C@H](Cc1ccccc1)NC(=O)[C@H](CCCCNC(=O)[C@H](CC(C)C)NC(=O)[C@@H]1CCCN1C(=O)[C@H](CCCCN)NC(=O)c1ccc(O[C@@H]2O[C@H](CO)[C@H](O)[C@H](O)[C@H]2O)cc1)NC(=O)[C@H](CC(C)C)NC(=O)[C@@H]1CCCN1C(=O)[C@H](CCCCN)NC(=O)C[C@@H]1O[C@@H](C)[C@@H](O)[C@@H](O)[C@@H]1O)C(N)=O)[C@@H](C)CC)NC(=O)[C@@H](NC(=O)[C@H](CCCCN)NC(=O)CSC[C@H](NC(=O)[C@H](Cc1ccccc1)NC(=O)[C@H](CCCCNC(=O)[C@H](CC(C)C)NC(=O)[C@@H]1CCCN1C(=O)[C@H](CCCCN)NC(=O)c1ccc(O[C@@H]2O[C@H](CO)[C@H](O)[C@H](O)[C@H]2O)cc1)NC(=O)[C@H](CC(C)C)NC(=O)[C@@H]1CCCN1C(=O)[C@H](CCCCN)NC(=O)C[C@@H]1O[C@@H](C)[C@@H](O)[C@@H](O)[C@@H]1O)C(N)=O)[C@@H](C)CC)C(N)=O	–	PAO1	biofilm-forming conditions	–	MBC	> 45 µM
CC[C@H](C)[C@H](NC(=O)[C@H](CCCCN)NC(=O)[C@H](CCCCN)NC(=O)[C@H](CC(C)C)NC(=O)[C@H](CCCCN)NC(=O)[C@H](CCC(=O)O)NC(=O)[C@H](CCCCN)NC(=O)[C@@H](NC(=O)[C@H](CCCCN)NC(=O)[C@H](CC(N)=O)NC(=O)[C@H](CCCNC(=N)N)NC(=O)[C@H](Cc1ccccc1)NC(=O)[C@H](CCCCN)NC(=O)[C@H](CCCNC(=N)N)NC(=O)[C@H](CC(C)C)NC(=O)[C@H](CCCNC(=N)N)NC(=O)[C@H](CCCCN)NC(=O)[C@H](CCCNC(=N)N)NC(=O)[C@H](CC(C)C)NC(=O)CN)[C@@H](C)CC)C(=O)NCC(=O)N[C@@H](CCC(N)=O)C(=O)N[C@@H](CCCCN)C(=O)N[C@H](C(=O)N[C@@H](CCC(N)=O)C(=O)NCC(=O)N[C@@H](Cc1ccccc1)C(=O)N[C@H](C(=O)N1CCC[C@H]1C(=O)N[C@@H](CCCCN)C(=O)N[C@@H](CC(C)C)C(=O)N[C@@H](C)C(=O)N1CCC[C@H]1C(=O)N[C@@H](CCCNC(=N)N)C(=O)N[C@H](C(=O)N[C@@H](CC(=O)O)C(=O)N[C@@H](Cc1ccc(O)cc1)C(=O)O)[C@@H](C)O)C(C)C)[C@@H](C)CC	inhibition zone	DH	–	–	lethal concentration	2.19 µM
CC[C@H](C)[C@H](NC(=O)[C@H](CCCNC(=N)N)NC(=O)[C@H](CCCCN)NC(=O)[C@H](CC(C)C)NC(=O)[C@H](CC(C)C)NC(=O)CN)C(=O)N[C@@H](CCCCN)C(=O)N[C@H](C(=O)N[C@@H](CC(C)C)C(=O)N[C@@H](CC(C)C)C(=O)NCCCC[C@H](NC(=O)[C@H](CC(C)C)NC(=O)[C@H](CC(C)C)NC(=O)[C@@H](NC(=O)[C@H](CCCCN)NC(=O)[C@@H](NC(=O)[C@H](CCCNC(=N)N)NC(=O)[C@H](CCCCN)NC(=O)[C@H](CC(C)C)NC(=O)[C@H](CC(C)C)NC(=O)CN)[C@@H](C)CC)[C@@H](C)O)C(=O)NCCCC[C@H](NC(=O)[C@H](CCCCNC(=O)[C@H](CC(C)C)NC(=O)[C@H](CC(C)C)NC(=O)[C@@H](NC(=O)[C@H](CCCCN)NC(=O)[C@@H](NC(=O)[C@H](CCCNC(=N)N)NC(=O)[C@H](CCCCN)NC(=O)[C@H](CC(C)C)NC(=O)[C@H](CC(C)C)NC(=O)CN)[C@@H](C)CC)[C@@H](C)O)NC(=O)[C@H](CC(C)C)NC(=O)[C@H](CC(C)C)NC(=O)[C@@H](NC(=O)[C@H](CCCCN)NC(=O)[C@@H](NC(=O)[C@H](CCCNC(=N)N)NC(=O)[C@H](CCCCN)NC(=O)[C@H](CC(C)C)NC(=O)[C@H](CC(C)C)NC(=O)CN)[C@@H](C)CC)[C@@H](C)O)C(N)=O)[C@@H](C)O	checkerboard	ATCC 27853	added: rifampicin	–	FIC index	0.25
CC(CCC(=O)[O-])C1CCC2C3C(O)CC4CC(O)CCC4(C)C3CCC12C.C[N+](C)(C)CC(O)CC(=O)O (stereo not shown)	–	TISTR357	1 mg per disc, 18 to 24 h, 37 °C	–	antibacterial activity	inactive
Nc1ccccc1C(=O)NS(=O)(=O)NC[C@H]1O[C@@H](n2cnc3c(N)ncnc32)[C@H](O)[C@@H]1O	HHQ production, LC-MS/MS	PA14	1500 µM, 8 h	–	inhibition	90%
CC[C@H](C)[C@H](NC(=O)[C@H](CCCNC(=N)N)NC(=O)[C@H](CCCNC(=N)N)NC(=O)[C@H](CC(C)C)NC(=O)[C@H](CCC(N)=O)NC(=O)[C@@H](N)C(C)C)C(=O)N[C@@H](CCCNC(=N)N)C(=O)N[C@H](C(=O)N[C@@H](Cc1c[nH]c2ccccc12)C(=O)N[C@H](C(=O)N[C@H](C(=O)N[C@@H](CCCNC(=N)N)C(N)=O)[C@@H](C)CC)C(C)C)C(C)C	propidium iodide staining	gfp-tagged	10 µg/mL, added at start, shear flow	–	biofilm inhibition	12.7%
COc1ccc(-c2ccn(CC[C@](C)(C(=O)NO)S(C)(=O)=O)c(=O)c2)c(F)c1	–	PAO397 efflux-deficient, lpxC promoter mutant	–	baseline: parent strain	MIC increase	16 fold
CN(C)S(=O)(=O)c1ccc(S(=O)(=O)N2CCC(n3c(=O)[nH]c4ccccc43)CC2)cc1	survival under NO stress	CIP 27853	4 h, added: NOC-5 5 µM	–	IC50	94.2 µM
CC[C@H](C)[C@H](NC(=O)[C@H](CCCCN)NC(=O)[C@H](CCCCN)NC(=O)[C@H](CC(C)C)NC(=O)[C@H](CCCCN)NC(=O)[C@H](CCC(=O)O)NC(=O)[C@H](CCCCN)NC(=O)[C@@H](NC(=O)[C@H](CCCCN)NC(=O)[C@H](CC(N)=O)NC(=O)[C@H](CCCNC(=N)N)NC(=O)[C@H](Cc1ccccc1)NC(=O)[C@H](CCCCN)NC(=O)[C@H](CCCNC(=N)N)NC(=O)[C@H](CC(C)C)NC(=O)[C@H](CCCNC(=N)N)NC(=O)[C@H](CCCCN)NC(=O)[C@H](CCCNC(=N)N)NC(=O)[C@H](CC(C)C)NC(=O)[C@@H](N)CCCNC(=N)N)[C@@H](C)CC)C(=O)NCC(=O)N[C@@H](CCC(N)=O)C(=O)N[C@@H](CCCCN)C(=O)N[C@H](C(=O)N[C@@H](CCC(N)=O)C(=O)NCC(=O)N[C@@H](Cc1ccccc1)C(=O)N[C@H](C(=O)N1CCC[C@H]1C(=O)N[C@@H](CCCCN)C(=O)N[C@@H](CC(C)C)C(=O)N[C@@H](CCC(N)=O)C(=O)N1CCC[C@H]1C(=O)N[C@@H](CO)C(=O)N[C@@H](CCCCN)C(=O)N[C@@H](CCC(N)=O)C(=O)N[C@@H](CO)C(=O)O)C(C)C)[C@@H](C)CC	inhibition zone	DH	–	–	lethal concentration	4.34 µM
CC(C)C[C@H](NC(=O)[C@@H]1CSCC(=O)N[C@@H](CCCCN)C(=O)N[C@@H](CC(C)C)C(=O)N[C@@H](CC(C)C)C(=O)N[C@H]2CCCCNC(=O)[C@H](CC(C)C)NC(=O)[C@H](CC(C)C)NC(=O)[C@H](CCCCN)NC(=O)CSC[C@H](NC(=O)[C@H](CC(C)C)NC(=O)[C@H](CC(C)C)NC(=O)[C@H](CCCCN)NC2=O)C(=O)N[C@@H](CCCCN)C(=O)N[C@@H](CCCCN)C(=O)N[C@@H](CCCCN)C(=O)N1)C(N)=O	–	PAO1	24 to 25 h	–	minimal biofilm inhibitory concentration	32 µg/mL
CC[C@H](C)[C@H](NC(=O)[C@H](CCCCN)NC(=O)[C@H](CCCCN)NC(=O)[C@H](CC(C)C)NC(=O)[C@H](CCCCN)NC(=O)[C@H](CCC(=O)O)NC(=O)[C@H](CCCCN)NC(=O)[C@@H](NC(=O)[C@H](CCCCN)NC(=O)[C@H](CC(N)=O)NC(=O)[C@H](CCCNC(=N)N)NC(=O)[C@H](Cc1ccccc1)NC(=O)[C@H](CCCCN)NC(=O)[C@H](CCCNC(=N)N)NC(=O)[C@H](CC(C)C)NC(=O)[C@H](CCCNC(=N)N)NC(=O)[C@H](CCCCN)NC(=O)[C@H](CCCNC(=N)N)NC(=O)[C@@H](N)CC(C)C)[C@@H](C)CC)C(=O)NCC(=O)N[C@@H](CCC(N)=O)C(=O)N[C@@H](CCCCN)C(=O)N[C@H](C(=O)N[C@@H](CCC(N)=O)C(=O)NCC(=O)N[C@@H](Cc1ccccc1)C(=O)N[C@H](C(=O)N1CCC[C@H]1C(=O)N[C@@H](CCCCN)C(=O)N[C@@H](CC(C)C)C(=O)O)C(C)C)[C@@H](C)CC	inhibition zone method	11092304, LB 0.8% agar with 154 mM NaCl	overnight, 37 °C	–	lethal concentration	3.54 µM
CC(CCCOC(=O)CCC[N+](C)(C)C)C1CCC2C3CCC4CC(OC(=O)CCC[N+](C)(C)C)CCC4(C)C3CC(OC(=O)CCC[N+](C)(C)C)C12C (stereo not shown)	–	ATCC 27853	–	baseline: HC50 over MIC	selectivity index	> 4

Some of these lines once more:
Compound	assay	system	setting	scale	quantity	result
CC[C@H](C)[C@H](NC(=O)[C@H](CCCNC(=N)N)NC(=O)[C@H](CCCCN)NC(=O)[C@H](CC(C)C)NC(=O)[C@H](CC(C)C)NC(=O)CN)C(=O)N[C@@H](CCCCN)C(=O)N[C@H](C(=O)N[C@@H](CC(C)C)C(=O)N[C@@H](CC(C)C)C(=O)NCCCC[C@H](NC(=O)[C@H](CC(C)C)NC(=O)[C@H](CC(C)C)NC(=O)[C@@H](NC(=O)[C@H](CCCCN)NC(=O)[C@@H](NC(=O)[C@H](CCCNC(=N)N)NC(=O)[C@H](CCCCN)NC(=O)[C@H](CC(C)C)NC(=O)[C@H](CC(C)C)NC(=O)CN)[C@@H](C)CC)[C@@H](C)O)C(=O)NCCCC[C@H](NC(=O)[C@H](CCCCNC(=O)[C@H](CC(C)C)NC(=O)[C@H](CC(C)C)NC(=O)[C@@H](NC(=O)[C@H](CCCCN)NC(=O)[C@@H](NC(=O)[C@H](CCCNC(=N)N)NC(=O)[C@H](CCCCN)NC(=O)[C@H](CC(C)C)NC(=O)[C@H](CC(C)C)NC(=O)CN)[C@@H](C)CC)[C@@H](C)O)NC(=O)[C@H](CC(C)C)NC(=O)[C@H](CC(C)C)NC(=O)[C@@H](NC(=O)[C@H](CCCCN)NC(=O)[C@@H](NC(=O)[C@H](CCCNC(=N)N)NC(=O)[C@H](CCCCN)NC(=O)[C@H](CC(C)C)NC(=O)[C@H](CC(C)C)NC(=O)CN)[C@@H](C)CC)[C@@H](C)O)C(N)=O)[C@@H](C)O	checkerboard	ATCC 27853	added: rifampicin	–	FIC index	0.25
CC[C@H](C)[C@H](NC(=O)[C@H](Cc1c[nH]cn1)NC(=O)[C@H](CCCCNC(=O)[C@@H](NC(=O)[C@H](CCCCN)NC(=O)CSC[C@H](NC(=O)[C@H](Cc1ccccc1)NC(=O)[C@H](CCCCNC(=O)[C@H](CC(C)C)NC(=O)[C@@H]1CCCN1C(=O)[C@H](CCCCN)NC(=O)c1ccc(O[C@@H]2O[C@H](CO)[C@H](O)[C@H](O)[C@H]2O)cc1)NC(=O)[C@H](CC(C)C)NC(=O)[C@@H]1CCCN1C(=O)[C@H](CCCCN)NC(=O)C[C@@H]1O[C@@H](C)[C@@H](O)[C@@H](O)[C@@H]1O)C(N)=O)[C@@H](C)CC)NC(=O)[C@@H](NC(=O)[C@H](CCCCN)NC(=O)CSC[C@H](NC(=O)[C@H](Cc1ccccc1)NC(=O)[C@H](CCCCNC(=O)[C@H](CC(C)C)NC(=O)[C@@H]1CCCN1C(=O)[C@H](CCCCN)NC(=O)c1ccc(O[C@@H]2O[C@H](CO)[C@H](O)[C@H](O)[C@H]2O)cc1)NC(=O)[C@H](CC(C)C)NC(=O)[C@@H]1CCCN1C(=O)[C@H](CCCCN)NC(=O)C[C@@H]1O[C@@H](C)[C@@H](O)[C@@H](O)[C@@H]1O)C(N)=O)[C@@H](C)CC)C(N)=O	–	PAO1	biofilm-forming conditions	–	MBC	> 45 µM
